# Published values of several laboratories.
# Every numbered part comes from another study and shows a few of its results, in no order.
# UniProt P51955, sequence (whole entry, looked up): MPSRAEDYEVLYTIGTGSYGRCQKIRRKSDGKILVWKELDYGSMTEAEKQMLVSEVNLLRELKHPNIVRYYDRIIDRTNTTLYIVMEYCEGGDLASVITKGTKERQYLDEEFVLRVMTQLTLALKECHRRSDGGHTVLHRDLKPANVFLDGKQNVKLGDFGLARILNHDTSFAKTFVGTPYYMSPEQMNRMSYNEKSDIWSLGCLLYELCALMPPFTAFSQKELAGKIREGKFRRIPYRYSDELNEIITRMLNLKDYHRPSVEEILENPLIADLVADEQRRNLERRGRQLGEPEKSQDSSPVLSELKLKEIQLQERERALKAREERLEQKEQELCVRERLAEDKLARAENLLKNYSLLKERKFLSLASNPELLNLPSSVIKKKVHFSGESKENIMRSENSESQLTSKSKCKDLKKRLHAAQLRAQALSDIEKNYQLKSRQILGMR
# UniProt Q7KZI7, sequence (whole entry, looked up): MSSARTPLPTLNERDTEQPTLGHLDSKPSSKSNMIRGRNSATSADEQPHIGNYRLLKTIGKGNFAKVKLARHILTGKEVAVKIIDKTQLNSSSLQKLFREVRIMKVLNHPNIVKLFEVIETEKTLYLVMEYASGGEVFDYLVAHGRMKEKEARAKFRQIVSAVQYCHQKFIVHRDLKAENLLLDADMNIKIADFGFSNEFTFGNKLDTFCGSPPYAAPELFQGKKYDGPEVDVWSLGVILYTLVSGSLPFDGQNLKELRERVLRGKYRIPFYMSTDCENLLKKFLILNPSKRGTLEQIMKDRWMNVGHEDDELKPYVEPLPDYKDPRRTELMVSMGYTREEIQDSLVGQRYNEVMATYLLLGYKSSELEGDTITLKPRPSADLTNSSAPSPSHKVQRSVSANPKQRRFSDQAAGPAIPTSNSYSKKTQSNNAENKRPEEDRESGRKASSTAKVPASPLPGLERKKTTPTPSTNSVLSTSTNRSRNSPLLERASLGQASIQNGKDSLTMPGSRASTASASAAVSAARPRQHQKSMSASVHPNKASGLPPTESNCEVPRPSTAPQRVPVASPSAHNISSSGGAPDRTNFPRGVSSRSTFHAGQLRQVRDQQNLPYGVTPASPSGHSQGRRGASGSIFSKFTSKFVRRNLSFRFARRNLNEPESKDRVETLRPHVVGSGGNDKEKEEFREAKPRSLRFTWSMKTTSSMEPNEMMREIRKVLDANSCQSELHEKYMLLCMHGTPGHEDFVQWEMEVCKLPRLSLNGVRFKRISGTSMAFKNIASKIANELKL
# UniProt Q00535, sequence (whole entry, looked up): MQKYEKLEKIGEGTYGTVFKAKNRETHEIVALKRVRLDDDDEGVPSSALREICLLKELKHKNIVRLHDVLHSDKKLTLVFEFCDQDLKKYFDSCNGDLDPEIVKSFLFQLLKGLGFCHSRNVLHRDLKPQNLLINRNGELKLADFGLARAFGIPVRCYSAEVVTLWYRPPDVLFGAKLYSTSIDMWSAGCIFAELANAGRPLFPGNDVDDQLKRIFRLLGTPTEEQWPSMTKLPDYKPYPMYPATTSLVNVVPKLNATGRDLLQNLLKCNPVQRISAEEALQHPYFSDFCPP
# UniProt O14965, sequence (whole entry, looked up): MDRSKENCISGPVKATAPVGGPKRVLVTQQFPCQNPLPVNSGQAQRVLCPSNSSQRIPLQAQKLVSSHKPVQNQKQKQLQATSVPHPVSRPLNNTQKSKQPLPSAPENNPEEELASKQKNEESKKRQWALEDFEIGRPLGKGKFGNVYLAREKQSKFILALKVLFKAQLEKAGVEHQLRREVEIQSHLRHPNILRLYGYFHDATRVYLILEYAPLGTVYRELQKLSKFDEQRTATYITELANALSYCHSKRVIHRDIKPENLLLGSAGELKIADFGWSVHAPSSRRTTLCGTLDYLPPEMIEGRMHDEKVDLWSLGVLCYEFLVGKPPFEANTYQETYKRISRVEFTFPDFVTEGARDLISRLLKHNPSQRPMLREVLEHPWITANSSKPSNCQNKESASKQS
# UniProt P35626, sequence (whole entry, looked up): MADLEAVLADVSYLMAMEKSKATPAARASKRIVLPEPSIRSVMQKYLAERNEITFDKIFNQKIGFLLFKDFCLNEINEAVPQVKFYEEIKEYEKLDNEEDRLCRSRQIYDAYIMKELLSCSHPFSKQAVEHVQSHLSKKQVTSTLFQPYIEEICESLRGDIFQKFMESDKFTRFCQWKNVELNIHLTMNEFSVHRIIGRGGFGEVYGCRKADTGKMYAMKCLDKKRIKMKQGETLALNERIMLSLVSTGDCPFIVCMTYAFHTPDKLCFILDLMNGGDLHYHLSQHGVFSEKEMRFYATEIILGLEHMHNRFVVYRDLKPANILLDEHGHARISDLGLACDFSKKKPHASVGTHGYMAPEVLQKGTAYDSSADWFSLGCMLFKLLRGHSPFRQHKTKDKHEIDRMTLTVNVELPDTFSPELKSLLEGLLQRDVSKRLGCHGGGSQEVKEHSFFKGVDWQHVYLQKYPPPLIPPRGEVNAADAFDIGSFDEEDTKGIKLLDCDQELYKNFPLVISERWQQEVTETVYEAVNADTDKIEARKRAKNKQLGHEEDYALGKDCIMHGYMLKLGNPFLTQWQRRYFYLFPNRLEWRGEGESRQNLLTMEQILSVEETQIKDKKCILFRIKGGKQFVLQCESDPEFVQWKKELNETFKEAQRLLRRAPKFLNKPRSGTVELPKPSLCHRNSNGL
# UniProt P10721, sequence (whole entry, unmodified, looked up): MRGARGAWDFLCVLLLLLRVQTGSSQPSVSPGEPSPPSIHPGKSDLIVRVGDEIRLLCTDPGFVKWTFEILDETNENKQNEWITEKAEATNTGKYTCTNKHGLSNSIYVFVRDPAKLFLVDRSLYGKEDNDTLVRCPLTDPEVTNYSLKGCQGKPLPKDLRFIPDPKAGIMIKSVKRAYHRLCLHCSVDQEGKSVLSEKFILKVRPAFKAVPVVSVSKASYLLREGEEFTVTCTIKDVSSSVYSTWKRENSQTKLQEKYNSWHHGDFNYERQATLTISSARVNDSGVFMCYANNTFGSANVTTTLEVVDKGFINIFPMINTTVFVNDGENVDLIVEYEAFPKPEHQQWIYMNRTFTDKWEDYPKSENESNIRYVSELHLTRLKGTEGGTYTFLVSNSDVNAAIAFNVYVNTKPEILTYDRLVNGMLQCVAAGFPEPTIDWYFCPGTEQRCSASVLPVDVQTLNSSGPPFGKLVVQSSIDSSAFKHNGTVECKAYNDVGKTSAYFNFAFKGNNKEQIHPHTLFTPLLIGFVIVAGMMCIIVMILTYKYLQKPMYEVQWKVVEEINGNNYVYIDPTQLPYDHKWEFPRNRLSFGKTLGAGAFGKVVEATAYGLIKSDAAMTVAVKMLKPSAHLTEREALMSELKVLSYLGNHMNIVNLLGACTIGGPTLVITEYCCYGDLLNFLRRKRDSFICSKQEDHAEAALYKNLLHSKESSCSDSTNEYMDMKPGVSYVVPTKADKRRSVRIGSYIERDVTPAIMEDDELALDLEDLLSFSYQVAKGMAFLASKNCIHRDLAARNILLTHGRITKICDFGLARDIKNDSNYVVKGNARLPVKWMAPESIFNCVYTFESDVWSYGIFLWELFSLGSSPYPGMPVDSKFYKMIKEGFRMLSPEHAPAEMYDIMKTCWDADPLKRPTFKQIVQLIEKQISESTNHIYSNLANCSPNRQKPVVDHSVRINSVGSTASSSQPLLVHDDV
# UniProt P42681, sequence (whole entry, looked up): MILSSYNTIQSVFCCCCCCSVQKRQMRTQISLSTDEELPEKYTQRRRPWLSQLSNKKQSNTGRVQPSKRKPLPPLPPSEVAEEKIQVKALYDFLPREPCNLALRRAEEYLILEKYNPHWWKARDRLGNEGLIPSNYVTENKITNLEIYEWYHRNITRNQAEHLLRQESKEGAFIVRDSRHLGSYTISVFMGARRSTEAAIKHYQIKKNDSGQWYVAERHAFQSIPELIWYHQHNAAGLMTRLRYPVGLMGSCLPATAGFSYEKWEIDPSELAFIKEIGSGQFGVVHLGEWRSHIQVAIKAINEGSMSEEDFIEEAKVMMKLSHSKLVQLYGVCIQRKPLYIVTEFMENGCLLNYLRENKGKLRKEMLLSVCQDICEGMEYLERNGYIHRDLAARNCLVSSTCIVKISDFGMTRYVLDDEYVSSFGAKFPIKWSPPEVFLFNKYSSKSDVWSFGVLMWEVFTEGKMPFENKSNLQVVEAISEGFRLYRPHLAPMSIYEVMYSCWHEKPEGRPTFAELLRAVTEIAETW
# UniProt Q13557, sequence (whole entry, looked up): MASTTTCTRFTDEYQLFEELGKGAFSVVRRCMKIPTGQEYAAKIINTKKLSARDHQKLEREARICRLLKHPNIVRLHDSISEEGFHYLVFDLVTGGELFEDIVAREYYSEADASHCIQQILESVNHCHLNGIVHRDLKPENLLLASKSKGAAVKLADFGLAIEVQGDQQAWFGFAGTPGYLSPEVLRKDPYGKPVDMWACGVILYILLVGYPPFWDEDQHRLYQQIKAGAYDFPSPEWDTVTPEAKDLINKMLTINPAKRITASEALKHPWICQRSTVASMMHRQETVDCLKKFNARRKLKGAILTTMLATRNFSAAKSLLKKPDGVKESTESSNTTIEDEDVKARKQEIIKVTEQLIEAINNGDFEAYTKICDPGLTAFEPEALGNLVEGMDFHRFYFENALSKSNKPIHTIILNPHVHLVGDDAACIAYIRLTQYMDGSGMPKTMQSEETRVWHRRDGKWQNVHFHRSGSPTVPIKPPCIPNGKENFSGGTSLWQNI
# UniProt Q9BXA7, sequence (whole entry, looked up): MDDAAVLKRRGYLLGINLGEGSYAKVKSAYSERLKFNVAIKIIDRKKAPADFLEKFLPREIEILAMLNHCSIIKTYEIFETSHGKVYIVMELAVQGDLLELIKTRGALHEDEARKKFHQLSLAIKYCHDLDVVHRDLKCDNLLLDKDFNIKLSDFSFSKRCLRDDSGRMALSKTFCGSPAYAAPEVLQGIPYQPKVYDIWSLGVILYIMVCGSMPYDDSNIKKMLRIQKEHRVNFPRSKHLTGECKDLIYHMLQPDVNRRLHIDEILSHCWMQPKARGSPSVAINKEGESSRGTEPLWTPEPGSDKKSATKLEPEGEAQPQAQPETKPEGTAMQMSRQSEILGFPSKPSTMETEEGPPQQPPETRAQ

# Series 1
# Structure (SMILES): Nc1[nH]nc2nnc(-c3c(-c4ccccc4)nn4ccccc34)cc12
# Observed: enzyme activity
# Action: inhibitor
# Concentration: 0.5 µM
# Reference: control
target,remaining activity
"STK39 (Homo sapiens, UniProt Q9UEW8)",89.1%
"DAPK1 (Homo sapiens, UniProt P53355)",95.9%
"Tyrosine-protein kinase Lyn, isoform B (LYN, Homo sapiens, UniProt P07948)",97.1%
"Protein kinase C beta type, isoform beta-I (PRKCB, Homo sapiens, UniProt P05771)",96.5%
"PRKCA (Homo sapiens, UniProt P17252)",87.2%
"GRK3 (Homo sapiens, UniProt P35626)",101%
"CAMK2D (Homo sapiens, UniProt Q13557)",96.5%
"TGFBR1 (Homo sapiens, UniProt P36897)",96.1%
"PRKACA (Homo sapiens, UniProt P17612)",97.7%
"cGMP-dependent protein kinase 1, isoform beta (PRKG1, Homo sapiens, UniProt Q13976)",89.5%
"NEK2 (Homo sapiens, UniProt P51955)",95.3%
"DAPK2 (Homo sapiens, UniProt Q9UIK4)",103%
"IKBKE (Homo sapiens, UniProt Q14164)",95.5%
"MAPK9 (Homo sapiens, UniProt P45984)",48.4%
"OXSR1 (Homo sapiens, UniProt O95747)",102%
"CAMKK2 (Homo sapiens, UniProt Q96RR4)",101%
"Cyclin-dependent kinase 5, with p25 (CDK5, Homo sapiens, UniProt Q00535)",101%
"STK10 (Homo sapiens, UniProt O94804)",70.9%
"IKBKB (Homo sapiens, UniProt O14920)",115%
"TGFBR2 (Homo sapiens, UniProt P37173)",112%
"MAP3K3 (Homo sapiens, UniProt Q99759)",110%
"CHEK2 (Homo sapiens, UniProt O96017)",97%

# Series 2
# SMILES: CC(=O)N1CCC(c2ccc(C(=O)NC3=NCCN3)cc2C(F)(F)F)CC1
# Technique: competition with immobilised ligand
# Concentration: 1 µM
target,observed,remaining binding [%]
"Receptor-type tyrosine-protein kinase FLT3, autoinhibited (FLT3, Homo sapiens, UniProt P36888)",cell-free assay,100
"CDC42BPB (Homo sapiens, UniProt Q9Y5S2)",cell-free assay,100
"CDK13 (Homo sapiens, UniProt Q14004)",cell-free assay,100
"WNK3 (Homo sapiens, UniProt Q9BYP7)",cell-free assay,86
"BMP2K (Homo sapiens, UniProt Q9NSY1)",cell-free assay,100
"EGFR (Homo sapiens, UniProt P00533, del747-750/T751S)",cell-free assay,100
"EPHA7 (Homo sapiens, UniProt Q15375)",cell-free assay,99
"STK32C (Homo sapiens, UniProt Q86UX6)",cell-free assay,100
"FLT3 (Homo sapiens, UniProt P36888, D835H)",cell-free assay,93
"ACVR1B (Homo sapiens, UniProt P36896)",cell-free assay,100
"EPHA8 (Homo sapiens, UniProt P29322)",cell-free assay,93
"MAP3K15 (Homo sapiens, UniProt Q6ZN16)",cell-free assay,93
"MAP3K1 (Homo sapiens, UniProt Q13233)",cell-free assay,86
"TXK (Homo sapiens, UniProt P42681)",binding,82
"STK36 (Homo sapiens, UniProt Q9NRP7)",cell-free assay,83
"MARK4 (Homo sapiens, UniProt Q96L34)",cell-free assay,100
"ERN1 (Homo sapiens, UniProt O75460)",cell-free assay,60
"SBK1 (Homo sapiens, UniProt Q52WX2)",cell-free assay,97
"MAP3K6 (Homo sapiens, UniProt O95382)",cell-free assay,93
"Ribosomal protein S6 kinase alpha-2, N-terminal kinase domain (RPS6KA2, Homo sapiens, UniProt Q15349)",cell-free assay,100
"EGFR (Homo sapiens, UniProt P00533, del746-750)",cell-free assay,100
"FLT3 (Homo sapiens, UniProt P36888, D835V/ITD)",cell-free assay,89
"NEK5 (Homo sapiens, UniProt Q6P3R8)",cell-free assay,100

# Series 3
# SMILES: Cc1nc(Nc2ncc(C(=O)Nc3c(C)cccc3Cl)s2)cc(N2CCN(CCO)CC2)n1
# Action: inhibitor
target,concentration,inhibition [%]
"TSSK1B (Homo sapiens, UniProt Q9BXA7)",1 µM,< 50
"MARK2 (Homo sapiens, UniProt Q7KZI7)",10 µM,< 50
"Aurora kinase A (AURKA, Homo sapiens, UniProt O14965)",1 µM,< 50
"PTK2B (Homo sapiens, UniProt Q14289)",10 µM,< 50
"SRPK2 (Homo sapiens, UniProt P78362)",10 µM,< 50
"BMPR2 (Homo sapiens, UniProt Q13873)",10 µM,< 50

# Series 4
# Compound: Cc1ccc(NC(=O)c2ccnc(C(F)(F)F)c2)cc1-c1cc(OCCO)nc(N2CCOCC2)c1
# Observed: binding
# Concentration: 1 µM
target,technique,remaining binding
"PRKD3 (Homo sapiens, UniProt O94806)",,100%
"NEK2 (Homo sapiens, UniProt P51955)",competition with immobilised ligand,97%
"MET (Homo sapiens, UniProt P08581, Y1235D)",,100%
"CAMK4 (Homo sapiens, UniProt Q16566)",,100%
"PI4KB (Homo sapiens, UniProt Q9UBF8)",,100%
"KIT (Homo sapiens, UniProt P10721, V559D)",,92%
"CDK15 (Homo sapiens, UniProt Q96Q40)",competition with immobilised ligand,100%
"HIPK2 (Homo sapiens, UniProt Q9H2X6)",competition with immobilised ligand,76%
"HUNK (Homo sapiens, UniProt P57058)",,100%

# Excerpt of the above (series 1):
target,remaining activity
"PRKCA (Homo sapiens, UniProt P17252)",87.2%
"PRKACA (Homo sapiens, UniProt P17612)",97.7%
"cGMP-dependent protein kinase 1, isoform beta (PRKG1, Homo sapiens, UniProt Q13976)",89.5%
"DAPK1 (Homo sapiens, UniProt P53355)",95.9%
"CAMKK2 (Homo sapiens, UniProt Q96RR4)",101%
"STK10 (Homo sapiens, UniProt O94804)",70.9%
"TGFBR2 (Homo sapiens, UniProt P37173)",112%
"CAMK2D (Homo sapiens, UniProt Q13557)",96.5%
